Measurements gathered from unrelated publications.
Numbered parts are unrelated; each lists some results of a single study.
Sequence of UniProt Q8WXR4 (whole entry, looked up): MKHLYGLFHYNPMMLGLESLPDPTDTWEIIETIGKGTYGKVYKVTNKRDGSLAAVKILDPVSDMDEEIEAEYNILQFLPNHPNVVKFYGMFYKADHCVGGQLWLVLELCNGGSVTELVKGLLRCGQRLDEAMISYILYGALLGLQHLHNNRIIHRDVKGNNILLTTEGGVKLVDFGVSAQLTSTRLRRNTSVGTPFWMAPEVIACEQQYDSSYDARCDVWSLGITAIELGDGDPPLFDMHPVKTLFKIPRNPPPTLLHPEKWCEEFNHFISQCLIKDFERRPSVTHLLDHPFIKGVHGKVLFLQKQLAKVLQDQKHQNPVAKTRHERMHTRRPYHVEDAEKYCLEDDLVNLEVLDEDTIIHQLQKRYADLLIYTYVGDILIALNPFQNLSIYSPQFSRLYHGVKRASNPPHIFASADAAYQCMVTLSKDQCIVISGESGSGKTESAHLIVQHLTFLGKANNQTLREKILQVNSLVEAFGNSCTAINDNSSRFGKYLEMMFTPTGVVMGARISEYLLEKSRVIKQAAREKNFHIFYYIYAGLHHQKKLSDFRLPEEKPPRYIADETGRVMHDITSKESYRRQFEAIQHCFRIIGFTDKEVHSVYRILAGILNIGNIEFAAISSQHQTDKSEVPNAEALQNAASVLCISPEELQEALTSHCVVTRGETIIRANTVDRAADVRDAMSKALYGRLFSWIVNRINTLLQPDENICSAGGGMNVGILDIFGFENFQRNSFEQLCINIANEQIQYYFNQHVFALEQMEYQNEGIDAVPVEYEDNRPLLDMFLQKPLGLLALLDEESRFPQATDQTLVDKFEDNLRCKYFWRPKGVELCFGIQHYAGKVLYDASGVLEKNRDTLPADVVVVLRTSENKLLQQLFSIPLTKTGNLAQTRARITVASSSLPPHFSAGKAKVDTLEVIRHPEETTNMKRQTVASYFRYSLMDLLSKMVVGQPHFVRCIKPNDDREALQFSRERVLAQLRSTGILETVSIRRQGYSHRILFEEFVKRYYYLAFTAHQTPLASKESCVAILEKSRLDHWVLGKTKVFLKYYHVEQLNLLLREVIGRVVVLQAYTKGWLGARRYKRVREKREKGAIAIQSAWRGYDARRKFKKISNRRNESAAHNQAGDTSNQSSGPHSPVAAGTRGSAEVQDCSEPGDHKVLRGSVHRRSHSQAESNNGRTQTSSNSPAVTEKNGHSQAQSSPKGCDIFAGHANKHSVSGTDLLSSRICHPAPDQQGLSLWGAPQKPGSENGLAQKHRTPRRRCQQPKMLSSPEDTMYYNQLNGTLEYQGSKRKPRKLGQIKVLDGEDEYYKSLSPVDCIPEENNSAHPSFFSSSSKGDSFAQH
Sequence of UniProt Q13153 (whole entry, looked up): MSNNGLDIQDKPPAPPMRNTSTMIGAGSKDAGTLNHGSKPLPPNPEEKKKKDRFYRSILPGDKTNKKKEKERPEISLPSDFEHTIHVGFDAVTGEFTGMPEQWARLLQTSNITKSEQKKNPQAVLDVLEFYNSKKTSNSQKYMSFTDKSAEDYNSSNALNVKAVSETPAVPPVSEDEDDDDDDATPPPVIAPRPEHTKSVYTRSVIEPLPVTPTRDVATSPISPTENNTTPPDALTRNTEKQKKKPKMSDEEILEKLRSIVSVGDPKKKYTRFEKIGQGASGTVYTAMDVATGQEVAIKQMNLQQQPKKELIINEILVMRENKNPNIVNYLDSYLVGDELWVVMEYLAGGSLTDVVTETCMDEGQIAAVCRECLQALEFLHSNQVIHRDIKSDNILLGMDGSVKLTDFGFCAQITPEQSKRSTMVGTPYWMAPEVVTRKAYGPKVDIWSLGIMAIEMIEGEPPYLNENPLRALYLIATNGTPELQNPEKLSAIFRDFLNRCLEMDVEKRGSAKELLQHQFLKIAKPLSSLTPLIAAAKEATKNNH
Sequence of UniProt Q59H18 (whole entry, looked up): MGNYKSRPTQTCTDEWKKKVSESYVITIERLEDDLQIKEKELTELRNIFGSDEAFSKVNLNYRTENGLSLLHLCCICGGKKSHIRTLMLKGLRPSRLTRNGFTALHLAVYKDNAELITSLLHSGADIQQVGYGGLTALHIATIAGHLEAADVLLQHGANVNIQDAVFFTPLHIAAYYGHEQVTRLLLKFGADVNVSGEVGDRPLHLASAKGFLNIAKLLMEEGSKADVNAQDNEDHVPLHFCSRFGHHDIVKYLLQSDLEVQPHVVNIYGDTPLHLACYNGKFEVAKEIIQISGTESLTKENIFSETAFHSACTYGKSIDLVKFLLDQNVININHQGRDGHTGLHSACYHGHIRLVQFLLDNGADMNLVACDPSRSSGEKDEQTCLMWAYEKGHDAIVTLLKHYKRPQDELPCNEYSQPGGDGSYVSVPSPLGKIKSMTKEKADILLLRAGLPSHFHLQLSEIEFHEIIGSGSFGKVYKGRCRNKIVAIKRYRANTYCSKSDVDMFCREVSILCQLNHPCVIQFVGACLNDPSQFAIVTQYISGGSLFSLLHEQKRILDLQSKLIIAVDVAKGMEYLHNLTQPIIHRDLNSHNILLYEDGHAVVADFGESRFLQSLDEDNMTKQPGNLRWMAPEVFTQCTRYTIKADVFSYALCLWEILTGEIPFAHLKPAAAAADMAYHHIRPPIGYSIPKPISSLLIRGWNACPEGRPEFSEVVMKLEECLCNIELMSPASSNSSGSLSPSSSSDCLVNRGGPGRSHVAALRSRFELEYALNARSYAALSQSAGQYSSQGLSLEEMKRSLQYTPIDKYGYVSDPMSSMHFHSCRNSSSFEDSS
Sequence of UniProt P49674 (whole entry, looked up): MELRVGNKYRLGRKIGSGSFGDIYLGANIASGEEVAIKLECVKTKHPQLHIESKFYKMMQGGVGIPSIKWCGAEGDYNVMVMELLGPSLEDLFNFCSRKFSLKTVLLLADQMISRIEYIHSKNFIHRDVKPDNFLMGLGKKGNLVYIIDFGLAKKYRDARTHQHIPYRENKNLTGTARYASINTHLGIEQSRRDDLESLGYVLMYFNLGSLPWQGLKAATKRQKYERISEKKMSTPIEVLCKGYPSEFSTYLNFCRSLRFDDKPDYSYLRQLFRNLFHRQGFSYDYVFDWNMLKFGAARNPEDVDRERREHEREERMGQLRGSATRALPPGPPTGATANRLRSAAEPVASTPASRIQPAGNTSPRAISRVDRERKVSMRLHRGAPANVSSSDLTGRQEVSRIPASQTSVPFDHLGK
Sequence of UniProt O14965 (whole entry, looked up): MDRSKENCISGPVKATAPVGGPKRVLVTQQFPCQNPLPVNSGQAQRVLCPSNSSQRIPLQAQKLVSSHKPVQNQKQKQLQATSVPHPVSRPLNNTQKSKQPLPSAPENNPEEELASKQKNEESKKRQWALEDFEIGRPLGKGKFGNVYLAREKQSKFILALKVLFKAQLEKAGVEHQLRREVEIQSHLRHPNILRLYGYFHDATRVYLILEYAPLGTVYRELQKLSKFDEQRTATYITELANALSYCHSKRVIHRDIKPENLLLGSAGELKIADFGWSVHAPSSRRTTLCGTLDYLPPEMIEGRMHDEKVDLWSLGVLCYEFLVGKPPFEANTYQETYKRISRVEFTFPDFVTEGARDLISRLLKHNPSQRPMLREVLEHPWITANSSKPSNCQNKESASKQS

Set 1 — Compound: C=CCc1ccc(O)c(-c2ccc(O)c(CC=C)c2)c1; read-out: chloride current; method: whole-cell voltage clamp
ANO1 del476-501/F807A: Anoctamin-1 (ANO1, Homo sapiens, UniProt Q5XXA6, del476-501/F807A)
Sequence of UniProt Q5XXA6 (whole entry, unmodified, looked up): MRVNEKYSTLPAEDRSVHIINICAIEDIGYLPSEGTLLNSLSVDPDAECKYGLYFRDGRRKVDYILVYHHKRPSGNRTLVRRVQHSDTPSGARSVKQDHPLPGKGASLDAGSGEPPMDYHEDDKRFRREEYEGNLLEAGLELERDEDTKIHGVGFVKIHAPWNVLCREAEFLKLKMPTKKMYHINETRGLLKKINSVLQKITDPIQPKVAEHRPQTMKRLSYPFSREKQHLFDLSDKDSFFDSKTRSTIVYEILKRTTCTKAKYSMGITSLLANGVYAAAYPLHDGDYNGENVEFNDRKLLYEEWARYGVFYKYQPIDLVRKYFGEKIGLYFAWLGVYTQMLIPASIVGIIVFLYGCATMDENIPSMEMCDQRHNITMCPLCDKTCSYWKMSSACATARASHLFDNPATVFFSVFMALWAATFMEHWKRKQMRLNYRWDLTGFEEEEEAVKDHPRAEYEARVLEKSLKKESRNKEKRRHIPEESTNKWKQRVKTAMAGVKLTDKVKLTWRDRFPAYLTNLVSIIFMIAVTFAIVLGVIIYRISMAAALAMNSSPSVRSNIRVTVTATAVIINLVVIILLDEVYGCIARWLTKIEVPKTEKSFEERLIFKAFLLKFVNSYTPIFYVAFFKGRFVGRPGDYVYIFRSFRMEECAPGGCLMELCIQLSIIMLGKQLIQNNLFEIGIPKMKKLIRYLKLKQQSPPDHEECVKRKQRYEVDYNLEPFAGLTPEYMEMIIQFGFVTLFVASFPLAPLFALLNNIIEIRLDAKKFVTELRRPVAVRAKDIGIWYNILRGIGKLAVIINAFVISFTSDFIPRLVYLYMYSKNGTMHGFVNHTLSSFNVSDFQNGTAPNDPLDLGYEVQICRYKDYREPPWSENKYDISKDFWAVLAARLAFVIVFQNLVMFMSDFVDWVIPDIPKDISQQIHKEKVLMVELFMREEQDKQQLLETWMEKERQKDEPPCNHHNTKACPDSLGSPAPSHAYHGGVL
| target | test | conditions | IC50 [µM] |
| --- | --- | --- | --- |
| Anoctamin-1 (ANO1, Homo sapiens, UniProt Q5XXA6, del476-501/F646A) | – | membrane voltage -20 mV | 4.54 |
| Anoctamin-1 (ANO1, Homo sapiens, UniProt Q5XXA6, del476-501) | inhibitor | 80 mV voltage, together with: 300 nM Ca2+ | 4.85 |
| ANO1 del476-501/F807A | – | membrane voltage 60 mV | 18.6 |
| Anoctamin-1 (ANO1, Homo sapiens, UniProt Q5XXA6, del476-501/F803I) | inhibitor | 80 mV holding voltage | 7.81 |
| Anoctamin-1 (ANO1, Homo sapiens, UniProt Q5XXA6, del476-501/F628W) | inhibitor | 40 mV holding voltage | 12.2 |
| Anoctamin-1 (ANO1, Homo sapiens, UniProt Q5XXA6, del476-501/F807I) | inhibitor | F781I mutant at -80 mV | 14.8 |
| Anoctamin-1 (ANO1, Homo sapiens, UniProt Q5XXA6, del476-501/R631I) | inhibitor | mutant R605I | 32 |
| Anoctamin-1 (ANO1, Homo sapiens, UniProt Q5XXA6, del476-501/F627A) | – | membrane voltage 40 mV | 6.39 |
| ANO1 del476-501/F807A | inhibitor | mutant F781A | 18.4 |
| Anoctamin-1 (ANO1, Homo sapiens, UniProt Q5XXA6, del476-501/L548A) | – | membrane voltage 60 mV | 5.81 |

Set 2 — method: competition with immobilised ligand; tested at: 1 µM
Structure (SMILES): Cc1nccc(COC(=O)N2C[C@@H]3[C@@H](CNC(=O)c4ccc5[nH]nnc5c4)[C@@H]3C2)n1
| target | test | remaining binding |
| --- | --- | --- |
| CAMK1 (Homo sapiens, UniProt Q14012) | cell-free assay | 93% |
| IRAK3 (Homo sapiens, UniProt Q9Y616) | cell-free assay | 100% |
| HIPK3 (Homo sapiens, UniProt Q9H422) | cell-free assay | 76% |
| TNNI3K (Homo sapiens, UniProt Q59H18) | cell-free assay | 94% |
| Tyrosine-protein kinase ABL1, phosphorylated (ABL1, Homo sapiens, UniProt P00519) | cell-free assay | 95% |
| Aurora kinase A (AURKA, Homo sapiens, UniProt O14965) | cell-free assay | 91% |
| PAK1 (Homo sapiens, UniProt Q13153) | cell-free assay | 92% |
| ERBB4 (Homo sapiens, UniProt Q15303) | cell-free assay | 100% |
| Myosin-IIIb (MYO3B, Homo sapiens, UniProt Q8WXR4) | binding | 100% |
| EIF2AK2 (Homo sapiens, UniProt P19525) | cell-free assay | 100% |
| LYN (Homo sapiens, UniProt P07948) | cell-free assay | 100% |
| PIK3C3 (Homo sapiens, UniProt Q8NEB9) | cell-free assay | 94% |
| GAK (Homo sapiens, UniProt O14976) | cell-free assay | 100% |
| CSNK1E (Homo sapiens, UniProt P49674) | cell-free assay | 100% |
| CLK2 (Homo sapiens, UniProt P49760) | cell-free assay | 80% |
| MAPKAPK2 (Homo sapiens, UniProt P49137) | cell-free assay | 72% |
| FLT3 (Homo sapiens, UniProt P36888, D835Y) | cell-free assay | 100% |

Set 3 — read-out: enzyme activity; action: inhibitor; tested at: 0.5 µM; relative to: control
Target: MAP kinase-interacting serine/threonine-protein kinase 1 (MKNK1, Homo sapiens, UniProt Q9BUB5)
Sequence of UniProt Q9BUB5 (whole entry, looked up): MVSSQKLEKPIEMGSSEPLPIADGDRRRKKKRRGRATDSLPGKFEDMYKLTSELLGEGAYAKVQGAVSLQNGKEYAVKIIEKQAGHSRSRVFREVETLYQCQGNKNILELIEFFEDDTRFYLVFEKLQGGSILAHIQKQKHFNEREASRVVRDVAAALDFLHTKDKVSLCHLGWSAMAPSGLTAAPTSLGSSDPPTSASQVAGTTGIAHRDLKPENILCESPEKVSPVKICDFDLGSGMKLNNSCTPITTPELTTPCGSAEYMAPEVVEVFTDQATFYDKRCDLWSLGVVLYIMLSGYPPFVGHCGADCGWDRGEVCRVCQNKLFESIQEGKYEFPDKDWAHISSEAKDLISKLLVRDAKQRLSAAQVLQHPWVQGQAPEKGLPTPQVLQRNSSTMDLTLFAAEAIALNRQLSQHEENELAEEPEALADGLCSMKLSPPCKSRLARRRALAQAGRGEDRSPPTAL
| SMILES | remaining activity [%] |
| --- | --- |
| N#Cc1cnc2cnc(NCc3cccnc3)cc2c1Nc1ccc(F)c(Cl)c1 | 73.2 |
| CCCNC(=O)Nc1ccc(Oc2ncnc3cc(OC)c(OC)cc23)cc1Cl | 95.2 |
| O=C1Nc2ccc(Br)cc2/C1=C/c1cc2c([nH]1)CCCC2 | 106 |
| Oc1cccc(-c2nc(N3CCOCC3)c3oc4ncccc4c3n2)c1 | 102 |
| COc1ccc(COc2ccc(Cc3cnc(N)nc3N)cc2OC)cc1 | 113 |
| COc1cccc(-c2cc(=O)c3ccccc3o2)c1N | 95.4 |
| Cc1ccc(S(=O)(=O)/C=C/C#N)cc1 | 99.4 |

Set 4 — tested at: 50 µM
Target: Bromodomain-containing protein 4, BD1 (BRD4, Homo sapiens, UniProt O60885)
| Structure (SMILES) | inhibition |
| --- | --- |
| CNC(=O)c1cccc(-c2ccc3c(N4CCOC[C@@H]4C)nc(N4CCOC[C@@H]4C)nc3n2)c1 | 35% |
| O=c1[nH]ccc2c(S(=O)(=O)N3CCCNCC3)cccc12 | 11.9% |
| COc1ccc2[nH]c([S+]([O-])Cc3ncc(C)c(OC)c3C)nc2c1 (centres unmarked) | 3.75% |
| C[C@]1(O)C[C@@H](c2nc(-c3ccc4ccc(-c5ccccc5)nc4c3)c3c(N)nccn32)C1 | 41.5% |
| CCc1cnn2c(NCc3ccc[n+]([O-])c3)cc(N3CCCC[C@H]3CCO)nc12 | 16.9% |
| CCCCCCCCCCCCCCCCCCOP(=O)([O-])OC1CC[N+](C)(C)CC1 | -17.4% |
| C=CC(=O)N1CCC[C@@H](n2nc(-c3ccc(Oc4ccccc4)cc3)c3c(N)ncnc32)C1 | 33.4% |
| CNc1nc(-c2ccc3c(N)n[nH]c3c2)cc(N2C[C@@H](C(=O)NC3CCCCC3)CC[C@H]2C)n1 | 92.4% |
| COc1cc2ncnc(Nc3ccc(F)c(Cl)c3)c2cc1NC(=O)/C=C/CN1CCCCC1 | 52.2% |
| Cc1cn(-c2cc(NC(=O)c3ccc(C)c(Nc4nccc(-c5cccnc5)n4)c3)cc(C(F)(F)F)c2)cn1 | 37.8% |

For quick reference, copied from above (set 4):
| Structure (SMILES) | inhibition |
| --- | --- |
| O=c1[nH]ccc2c(S(=O)(=O)N3CCCNCC3)cccc12 | 11.9% |
| COc1ccc2[nH]c([S+]([O-])Cc3ncc(C)c(OC)c3C)nc2c1 (centres unmarked) | 3.75% |
| C[C@]1(O)C[C@@H](c2nc(-c3ccc4ccc(-c5ccccc5)nc4c3)c3c(N)nccn32)C1 | 41.5% |
| CCc1cnn2c(NCc3ccc[n+]([O-])c3)cc(N3CCCC[C@H]3CCO)nc12 | 16.9% |
| CCCCCCCCCCCCCCCCCCOP(=O)([O-])OC1CC[N+](C)(C)CC1 | -17.4% |
| C=CC(=O)N1CCC[C@@H](n2nc(-c3ccc(Oc4ccccc4)cc3)c3c(N)ncnc32)C1 | 33.4% |
